Measured values pooled from the literature.
Each line is one published result; not all experiments were run side by side. “And” joins repeats or separate records; there may be more than shown.
ADRA2C: Alpha-2C adrenergic receptor (ADRA2C, Homo sapiens, UniProt P18825)
UCHL1: Ubiquitin carboxyl-terminal hydrolase isozyme L1 (UCHL1, Homo sapiens, UniProt P09936)
Voltage-dependent P/Q-type calcium channel subunit alpha-1A: Voltage-dependent P/Q-type calcium channel subunit alpha-1A (Homo sapiens, UniProt O00555)
T1: RNA aptamer C48U/G52A, 5'-triphosphate, 2',3'-cyclic phosphate; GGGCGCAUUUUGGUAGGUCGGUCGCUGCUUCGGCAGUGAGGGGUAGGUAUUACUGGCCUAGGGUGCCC

With `Cc1cc(Oc2ncccc2CN2CCN(c3ccccc3O)CC2)ccc1-c1c(C)c(=O)[nH]c(=O)n1C` the selectivity ratio was 5 (ADRA2C; binding, radioligand binding; with: [3H]rauwolscine; reference: Ki alpha2A over Ki alpha2C).
`Nc1nc2c(ncn2[C@@H]2O[C@H](COP(=O)(O)OP(=O)(O)OP(=O)(O)O)[C@@H](O)[C@H]2O)c(=O)[nH]1` has a Kd of 0.0282 µM (T1, RNA aptamer C48U/G52A, 5'-triphosphate, 2',3'-cyclic phosphate; ITC).
For `Cc1cc(Oc2ncccc2CN2CCN(c3ccc(Cl)cc3)CC2)ccc1-c1c(C)c(=O)[nH]c(=O)n1C`, the selectivity ratio was 4 (ADRA2C; binding, radioligand binding; with: [3H]rauwolscine; reference: Ki alpha2B over Ki alpha2C).
The labelling of `COc1cc(C=C(C#N)C(N)=O)ccc1OC(F)F` is reported as 14.6% (UCHL1; covalent, intact protein LC-MS; 12.5 µM).
For `C=CC(=O)N1CCC(COCC(=O)N2CCN(c3nc(-c4cnc(N)nc4C(F)F)nc(N4CCOC[C@@H]4C)n3)CC2)CC1`, the remaining binding was 85% (EPHA7 (Homo sapiens, UniProt Q15375); KINOMEscan; 1 µM).
`CC(C)NC(=O)C(C#N)=Cc1ccc(Cl)c([N+](=O)[O-])c1` gave a labelling of 42.1% (UCHL1; covalent, intact protein LC-MS; 12.5 µM).
The selectivity ratio of `Cc1cc(Oc2ncccc2CN2CCN(c3c(C)cccc3C)CC2)ccc1-c1c(C)c(=O)[nH]c(=O)n1C` is reported as 4 (ADRA2C; binding, radioligand binding; with: [3H]rauwolscine; reference: Ki alpha2A over Ki alpha2C).
For `CC(C)OCCn1c(=S)[nH]c(=O)c2[nH]ccc21`, the H2O2 concentration was -0.629 µM (Myeloperoxidase (MPO, Homo sapiens, UniProt P05164); H2O2 consumption, inhibitor, H2O2 electrode; 0.226 µM, 0.2 s).
For `O=C(c1ccc(F)cc1)N1CCC2(CC1)N(C1CCCC1)C(=O)C[S+]2[O-]` (stereo not drawn), the labelling was 12.2% (UCHL1; covalent, intact protein LC-MS; 12.5 µM).
`CCN(c1ccccc1)S(=O)(=O)c1ccc(Cl)c(C(=O)Nc2ccccc2N2CCN(C)C2=O)c1` has a selectivity ratio of ~5 fold (N-myristoyltransferase (Cryptosporidium parvum, UniProt Q5CV46); enzyme activity, inhibitor; reference: HsNMT1 IC50 over target IC50).
`CC(=O)N[C@@H](CC(C)C)C(=O)N[C@@H](CC(=O)O)C(=O)N1CCC[C@H]1C(=O)N1CCC[C@H]1C(=O)N[C@@H](CC(C)C)C(=O)N[C@@H](Cc1c[nH]cn1)C(=O)N[C@@H](CO)C(=O)N[C@H](C(=O)N[C@@H](C)C(N)=O)[C@@H](C)OP(=O)(O)O` has a binding entropy of -24.3 cal/(mol·K) (PLK1 (Homo sapiens, UniProt P53350); polo-box domain binding, isothermal titration calorimetry; concentration not given, 25 °C).
`Oc1ccccc1-c1n[nH]cc1-c1ccnc2ccccc12` — result for “log2 fold change”: 0.42 (Extracellular signal-regulated kinase 1 (CEK1, Candida albicans, UniProt Q5A1D3); kinase binding, MIB/MS competition; Candida albicans lysate; 10 µM; reference: DMSO, negative = stronger binding).
With `CN(C)CCCCCN(C)Cc1cc2ccccc2o1.Cl` the inhibition was -6.1% (Trypanosoma cruzi; reporter translation, Renilla luciferase mRNA translation; cell-free extract; 40 µM; reference: DMSO).
The decatenated DNA of `O=c1nc(SCc2cc(F)cc(C(F)(F)F)c2)nc(SCc2ccc3sccc3c2)[nH]1` is reported as 1% (TOP2B (Homo sapiens, UniProt Q02880); decatenation; 15.6 µM, replicate 2).
`O=C(NC1CCC1)c1ccc2nc(-c3cccc(NS(=O)(=O)NCCN4CCCCC4)c3)cn2c1` gave a remaining activity of 49% (PIK3CA (Homo sapiens, UniProt P42336, Q546K); enzyme activity; 10 µM).
`Nc1ccc(C(=O)O)cc1` has a current density of -10.7 pA/pF and -5.74 pA/pF and -8.27 pA/pF and -21.1 pA/pF and -6.12 pA/pF and -3.35 pA/pF (BEST1, with wild-type BEST1 (Homo sapiens, UniProt O76090, L234P); ion current, whole-cell patch clamp; HEK293 co-expressing mutant and wild-type; concentration not given, voltage -40 mV).
For `COc1ccc2c(c1)c(CC(=O)O)c(C)n2C(=O)c1ccc(Cl)cc1`, the IC30 was > 30 µM (Voltage-dependent P/Q-type calcium channel subunit alpha-1A; ion current, antagonist, automated patch clamp).
The inhibition of `CC[C@@H]1[C@H](F)C(=O)N[C@@H]1COc1nccc2cc(C(N)=O)c(OC)cc12` is reported as 22.9% (LRRK2 (Homo sapiens, UniProt Q5S007); ATP-site probe binding, ActivX profiling; THP-1 cell lysate; 0.2 mM, Lys2 site).
With `NC(=O)c1ccc[n+]([C@@H]2O[C@H](COP(=O)([O-])OP(=O)(O)OC[C@H]3O[C@@H](n4cnc5c(NCCNC(=O)CCCCCNC(=O)CCCCCNC(=O)CCCC[C@@H]6SC[C@@H]7NC(=O)N[C@@H]76)ncnc54)[C@H](O)[C@@H]3O)[C@@H](O)[C@H]2O)c1` the apparent Km was 12 µM (PARP12 (Homo sapiens, UniProt Q9H0J9); substrate, DELFIA auto-modification).
`Nc1ncnc2c1ncn2[C@@H]1O[C@H](COP(=O)(O)OP(=O)(O)O)[C@@H](O)[C@H]1O` has a ΔH of -0.328 kcal/mol (GUK1 (Homo sapiens, UniProt Q16774); binding, isothermal titration calorimetry; molar ratio 2.17, fitted curve).
The labelling of `CSC(=C(C#N)S(=O)(=O)c1cc(C)ccc1C)N1CCCCC1` is reported as 17.3% (UCHL1; covalent, intact protein LC-MS; 12.5 µM).
For `Nc1ncnc2c1nc(N/N=C/c1ccc([N+](=O)[O-])cc1)n2[C@@H]1O[C@H](CO)[C@@H](O)[C@H]1O`, the luminescence was 76900 a.u. (B4GALT1 (Homo sapiens, UniProt P15291); enzyme activity, inhibitor, UDP-Glo; 100 µM; lower means stronger inhibition).
`Nc1ncnc2c1ncn2[C@@H]1O[C@H](COP(=O)(O)CP(=O)(O)OP(=O)(O)O)[C@@H](O)[C@H]1O` gave a calcium influx of 100% (P2X purinoceptor 1 (P2RX1, Homo sapiens, UniProt P51575, K140A); calcium influx; 10 µM; reference: ionomycin response).
`c1coc(-c2n[nH]cc2-c2ccnc3ccccc23)c1` — result for “log2 fold change”: -0.21 (Histidine protein kinase NIK1 (NIK1, Candida albicans, UniProt Q5A599); kinase binding, MIB/MS competition; Candida albicans lysate; 1 µM; reference: DMSO, negative = stronger binding).
The inhibition of `CCC(C)(C)C(=O)O[C@H]1C[C@@H](C)C=C2C=C[C@H](C)[C@H](CC[C@@H]3C[C@@H](O)CC(=O)O3)[C@H]21` is reported as 97% (Voltage-dependent P/Q-type calcium channel subunit alpha-1A; ion current, antagonist; HEK293; 30 µM).
The Hill coefficient of `O=c1ccc2c(OCCCCOc3cccc(O)c3)c3ccoc3cc2o1` is reported as 2 (Kcna3 (Mus musculus, UniProt P16390); potassium current, blocker; L929).
`Cn1ncc(S(=O)(=O)NCc2ccccc2SC(F)(F)F)c1C(=O)O` has a remaining activity of 96% (malate dehydrogenase; enzyme activity, inhibitor; 200 µM, pH 7.0, 1% DMSO, aggregation counter-screen).
For `CCOC(=O)c1c(NC(=O)Cn2cnc([N+](=O)[O-])n2)sc2c1CCCC2`, the inhibition was 4.5% (Trypanosoma cruzi; reporter translation, Renilla luciferase mRNA translation; cell-free extract; 40 µM; reference: DMSO).
With `COc1ccc(-c2csc(CNS(=O)(=O)c3cnn(C)c3C(=O)O)n2)cc1` the remaining activity was 85% (malate dehydrogenase; enzyme activity, inhibitor; 200 µM, pH 7.0, 1% DMSO, aggregation counter-screen).
`CCCCCCCC(=O)c1cc(OC)c(OC)c(OC)c1CC(=O)OCC` has an activation of 1.2 fold (Nuclear receptor subfamily 1 group I member 3 (Homo sapiens, UniProt Q14994); reporter gene, Gal4 hybrid reporter; 10 µM; reference: vehicle).
For `N#Cc1nc2ccccc2s1`, the labelling was 15.8% (UCHL1; covalent, intact protein LC-MS; 12.5 µM).
The remaining activity of `Cn1ncc(S(=O)(=O)NCc2ccn(-c3ccc(Br)cc3)n2)c1C(=O)O` is reported as 75% (malate dehydrogenase; enzyme activity, inhibitor; 200 µM, pH 7.0, 1% DMSO, aggregation counter-screen).
With `CNCC[C@@H](Oc1ccccc1C)c1ccccc1` the IC30 was 3.94 µM (Voltage-dependent P/Q-type calcium channel subunit alpha-1A; ion current, antagonist, automated patch clamp).
For `CC(C)CCC[C@@H](C)[C@H]1CC[C@@H]2[C@@H]1CC[C@H]1[C@H]2CC=C2C[C@@H](O)CC[C@@H]21`, the kobs was 0.00015 s⁻¹ (hh, HhC autoprocessing domain (Drosophila melanogaster, UniProt Q02936); autoprocessing, substrate, C-H-Y FRET reporter; 200 µM).
`CC[C@H](C)C(=O)O[C@H]1C[C@H](O)C=C2C=C[C@H](C)[C@H](CC[C@@H](O)C[C@@H](O)CC(=O)O)[C@H]21` gave an inhibition of 7% (Voltage-dependent P/Q-type calcium channel subunit alpha-1A; ion current, antagonist; HEK293; 10 µM).
With `NC(=O)C[C@H](N)C(=O)O` the Km was 23 µM (L-asparaginase Candida palmioleophila; substrate, Nesslerization; pH 7.5, 35 °C).
Under “drug formation rate”, `CC(C)(C)c1nc(-c2cccc(N(Cc3cc(C(=O)[O-])ccc3OP(=O)([O-])[O-])S(=O)(=O)c3c(F)cccc3F)c2F)c(-c2ccnc(N)n2)s1.[Na+].[Na+].[Na+]` is recorded as 1.26 pmol/min (Alkaline phosphatase, placental type (Homo sapiens, UniProt P05187); substrate; 100 µM, pH 7.6, 37 °C).
`CO[C@@H]1O[C@@H](C)[C@@H](O)[C@@H](O)[C@@H]1O` gave a -ΔH of 7.84 kcal/mol (fleA (Aspergillus fumigatus, UniProt Q4WW81); ITC).
For `O=C(CCCc1ccccc1)C(=O)NCCc1ccc(Oc2ccc(C(F)(F)F)cn2)cc1`, “probe-enriched protein abundance” read 102000 a.u. (Pyruvate kinase PKM (PKM, Homo sapiens, UniProt P14618); inhibitor, FP-biotin chemoproteomics, item: KPYM; HepG2; concentration not given; reference: DMSO, lower = stronger inhibition).

Some of these lines once more:
With `CN(C)CCCCCN(C)Cc1cc2ccccc2o1.Cl` the inhibition was -6.1% (Trypanosoma cruzi; reporter translation, Renilla luciferase mRNA translation; cell-free extract; 40 µM; reference: DMSO).
With `CNCC[C@@H](Oc1ccccc1C)c1ccccc1` the IC30 was 3.94 µM (Voltage-dependent P/Q-type calcium channel subunit alpha-1A; ion current, antagonist, automated patch clamp).
